Measured values from different studies.
Every numbered part comes from another study and shows a few of its results, in no order. Positions count from the first letter of the parent shown.

Block 1 — method: RNA Bind-n-Seq; molecule type: RNA; medium: in vitro; concentration: 200 nM; notes: whole 134-nt RNA, ends assumed; added: 150 mM LiCl; relative to: input library; direction: higher = stronger binding; endpoint: log2 enrichment; library: 7-deaza-guanosine replaces G
Target: Ras GTPase-activating protein-binding protein 1, full length (G3BP1, Homo sapiens, UniProt Q13283)
UniProt Q13283, sequence (whole entry, looked up): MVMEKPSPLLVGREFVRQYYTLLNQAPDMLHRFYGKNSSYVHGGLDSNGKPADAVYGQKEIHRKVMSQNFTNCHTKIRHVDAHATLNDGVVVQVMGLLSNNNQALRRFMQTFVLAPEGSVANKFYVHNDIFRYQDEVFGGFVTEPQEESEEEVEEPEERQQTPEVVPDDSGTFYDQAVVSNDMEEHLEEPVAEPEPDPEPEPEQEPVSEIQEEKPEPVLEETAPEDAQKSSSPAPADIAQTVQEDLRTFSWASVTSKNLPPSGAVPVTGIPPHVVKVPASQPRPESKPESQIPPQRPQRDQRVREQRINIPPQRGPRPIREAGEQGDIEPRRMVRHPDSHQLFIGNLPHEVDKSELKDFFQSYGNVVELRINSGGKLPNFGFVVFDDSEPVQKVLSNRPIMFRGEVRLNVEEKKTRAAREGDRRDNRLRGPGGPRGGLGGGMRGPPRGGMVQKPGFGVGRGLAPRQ
All sequences stand within: GGGAGUUCUACAGUCCGACGAUC … UGGAAUUCUCGGGUGUCAAGG
AGUCCUGUGCUACACAUCGUAUGUACCGAAUCGGGUUUUGGGGUUUUGGGUUUUGGGAAAGUAUUAUGUUACGCCGUUCGGAUCUGCACU: -0.452
UAACUUUAGAGGAGGAUCUGAUGGAUGUGGCAGUGGACGUGGAUUUGGGGAUGGCUAUAAUGGGUAUGGAGGAGGACCUGGAGGUGGCAA: 0.111
CUCAAGUCCUGUGCUACACAUCGUAUGUACCGAAUCGGGUGGGAGGGUUUGGGAAAGUAUUAUGUUACGCCGUUCGGAUCUGCACUUCCA: -0.21
CUCAAGUCCUGUGCUACACAUCGUAUGUACCGAAUCGGGAAAGGAAAGGAAAGGAAAGUAUUAUGUUACGCCGUUCGGAUCUGCACUUCC: -0.386
UGGGAGGUGGAUUUUGUUUAUUUUUUUAGCUCAUUUCCAGGGGUGGGAAUUUUUUUUUAAUAUGUGUCAUGACUAAAGUUGUUUUUGAAA: 0.0388

Block 2 — method: protein binding microarray; molecule type: double-stranded DNA, one strand shown; medium: in vitro; concentration: not given; relative to: not given; direction: higher = stronger binding; endpoint: E-score
Target: Histone acetyltransferase KAT6A, winged helix 1, GST fusion (KAT6A, Homo sapiens, UniProt Q92794, residues 1-85)
Notes: 8-mer, flanks averaged, mean of 2 arrays, mostly near background
Target sequence (chain): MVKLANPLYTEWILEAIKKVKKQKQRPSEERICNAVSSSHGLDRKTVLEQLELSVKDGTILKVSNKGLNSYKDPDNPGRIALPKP
CAGATTGG: -0.297
CATTGTCG: -0.052
CTCGGCGC: 0.376
CTCCAGTA: -0.0406
CCACCACA: -0.271
CCCGGACA: 0.205
ACAGCTTG: -0.133
ACATGGGG: -0.0135
ACAGGTGC: -0.128
CTCCGTAA: 0.144

Block 3 — target: CCNE2, cyclin fold, Cln2 fusion (human); method: yeast growth competition, sequencing; medium: yeast; notes: strong parent motif; relative to: not given; direction: higher = stronger binding; endpoint: normalised enrichment score
Starting sequence: SCAPER docking peptide (human); SNARRSLNFGGST
F9R: 0.858
T13M: 1.48
L7Q: 0.48
R4T: 0.701
G11Y: 1.23
G11E: 0.526
F9N: -0.275

Other studies, line by line
PhoQ, residues 284 288 289 292 302 303 TYGVAM
fold induction (PhoP, residues 12 14 15 18 19 NQGLL (Escherichia coli, UniProt P23836); Sort-seq, refers to: YFP reporter; E. coli; PhoQ-PhoP variant library, added: 10 µM Mg2+; relative to: high Mg2+ state, higher = stronger signaling): 8.11

Excerpt of the above (block 3):
R4T: 0.701
F9R: 0.858
